Earlier results as cited in several papers.
Numbers after ± are the reported error.
Sequence of UniProt Q05397 (whole entry, looked up): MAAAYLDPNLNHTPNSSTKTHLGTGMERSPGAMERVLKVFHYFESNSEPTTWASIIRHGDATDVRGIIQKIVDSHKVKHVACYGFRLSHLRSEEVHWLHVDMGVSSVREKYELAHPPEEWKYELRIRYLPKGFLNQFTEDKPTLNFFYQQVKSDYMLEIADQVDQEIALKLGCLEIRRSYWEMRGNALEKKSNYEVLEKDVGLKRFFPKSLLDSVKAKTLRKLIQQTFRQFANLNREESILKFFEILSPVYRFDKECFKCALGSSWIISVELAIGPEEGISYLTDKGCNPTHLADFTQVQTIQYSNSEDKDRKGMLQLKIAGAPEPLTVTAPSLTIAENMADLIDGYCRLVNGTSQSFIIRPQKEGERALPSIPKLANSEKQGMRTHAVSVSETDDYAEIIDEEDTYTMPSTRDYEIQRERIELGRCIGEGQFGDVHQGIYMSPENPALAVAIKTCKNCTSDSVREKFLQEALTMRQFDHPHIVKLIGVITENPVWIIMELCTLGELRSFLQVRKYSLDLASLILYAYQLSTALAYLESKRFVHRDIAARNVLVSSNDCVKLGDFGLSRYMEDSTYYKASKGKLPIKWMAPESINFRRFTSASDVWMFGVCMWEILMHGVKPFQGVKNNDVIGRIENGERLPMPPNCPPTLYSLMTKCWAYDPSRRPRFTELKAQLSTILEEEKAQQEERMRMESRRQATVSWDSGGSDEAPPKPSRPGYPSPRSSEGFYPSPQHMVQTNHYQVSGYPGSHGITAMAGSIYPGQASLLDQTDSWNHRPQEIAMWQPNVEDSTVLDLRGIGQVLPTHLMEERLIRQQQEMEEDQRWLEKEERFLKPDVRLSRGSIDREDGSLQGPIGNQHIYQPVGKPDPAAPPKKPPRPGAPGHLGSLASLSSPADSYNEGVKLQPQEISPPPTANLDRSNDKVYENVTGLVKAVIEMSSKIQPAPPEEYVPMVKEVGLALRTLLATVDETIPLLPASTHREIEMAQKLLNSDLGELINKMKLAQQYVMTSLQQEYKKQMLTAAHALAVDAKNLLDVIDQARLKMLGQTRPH
Sequence of UniProt O75747 (whole entry, looked up): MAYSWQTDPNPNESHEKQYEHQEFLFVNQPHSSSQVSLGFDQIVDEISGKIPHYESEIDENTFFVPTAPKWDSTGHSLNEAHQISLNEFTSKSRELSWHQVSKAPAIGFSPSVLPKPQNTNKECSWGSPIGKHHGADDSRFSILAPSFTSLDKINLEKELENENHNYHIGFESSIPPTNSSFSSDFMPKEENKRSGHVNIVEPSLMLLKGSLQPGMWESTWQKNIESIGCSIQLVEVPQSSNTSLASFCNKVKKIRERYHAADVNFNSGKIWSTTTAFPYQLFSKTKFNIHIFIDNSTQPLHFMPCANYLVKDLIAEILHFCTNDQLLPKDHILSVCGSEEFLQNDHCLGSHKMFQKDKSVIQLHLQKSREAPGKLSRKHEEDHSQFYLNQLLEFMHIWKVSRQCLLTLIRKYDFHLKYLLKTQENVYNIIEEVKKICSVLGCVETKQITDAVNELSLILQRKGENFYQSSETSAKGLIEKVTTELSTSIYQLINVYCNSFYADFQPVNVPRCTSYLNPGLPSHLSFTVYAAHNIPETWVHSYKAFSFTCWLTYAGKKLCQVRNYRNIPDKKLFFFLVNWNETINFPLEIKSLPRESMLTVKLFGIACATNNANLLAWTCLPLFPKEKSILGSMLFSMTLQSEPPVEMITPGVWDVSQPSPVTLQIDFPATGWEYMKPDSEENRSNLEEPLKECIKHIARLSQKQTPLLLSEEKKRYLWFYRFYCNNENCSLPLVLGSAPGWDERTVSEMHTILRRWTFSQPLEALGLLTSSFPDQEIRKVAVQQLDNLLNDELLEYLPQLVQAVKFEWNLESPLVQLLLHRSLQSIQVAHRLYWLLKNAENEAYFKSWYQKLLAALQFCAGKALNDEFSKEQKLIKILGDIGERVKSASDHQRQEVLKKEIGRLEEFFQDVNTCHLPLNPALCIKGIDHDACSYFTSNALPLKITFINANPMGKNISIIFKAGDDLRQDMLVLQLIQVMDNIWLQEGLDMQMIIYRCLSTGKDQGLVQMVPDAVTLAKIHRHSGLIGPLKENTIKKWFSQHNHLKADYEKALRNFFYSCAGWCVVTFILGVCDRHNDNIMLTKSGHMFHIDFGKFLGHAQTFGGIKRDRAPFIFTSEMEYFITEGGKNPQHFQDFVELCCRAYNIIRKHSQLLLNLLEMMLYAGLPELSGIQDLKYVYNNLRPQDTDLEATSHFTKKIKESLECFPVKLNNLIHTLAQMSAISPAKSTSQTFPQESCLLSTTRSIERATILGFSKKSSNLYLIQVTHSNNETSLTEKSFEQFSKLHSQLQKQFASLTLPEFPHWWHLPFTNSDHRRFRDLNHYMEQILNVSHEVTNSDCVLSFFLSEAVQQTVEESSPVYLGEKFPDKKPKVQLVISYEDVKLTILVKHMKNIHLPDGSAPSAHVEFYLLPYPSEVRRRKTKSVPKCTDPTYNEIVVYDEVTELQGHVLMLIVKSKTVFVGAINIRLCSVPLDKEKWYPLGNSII
Sequence of UniProt P00189 (whole entry, looked up): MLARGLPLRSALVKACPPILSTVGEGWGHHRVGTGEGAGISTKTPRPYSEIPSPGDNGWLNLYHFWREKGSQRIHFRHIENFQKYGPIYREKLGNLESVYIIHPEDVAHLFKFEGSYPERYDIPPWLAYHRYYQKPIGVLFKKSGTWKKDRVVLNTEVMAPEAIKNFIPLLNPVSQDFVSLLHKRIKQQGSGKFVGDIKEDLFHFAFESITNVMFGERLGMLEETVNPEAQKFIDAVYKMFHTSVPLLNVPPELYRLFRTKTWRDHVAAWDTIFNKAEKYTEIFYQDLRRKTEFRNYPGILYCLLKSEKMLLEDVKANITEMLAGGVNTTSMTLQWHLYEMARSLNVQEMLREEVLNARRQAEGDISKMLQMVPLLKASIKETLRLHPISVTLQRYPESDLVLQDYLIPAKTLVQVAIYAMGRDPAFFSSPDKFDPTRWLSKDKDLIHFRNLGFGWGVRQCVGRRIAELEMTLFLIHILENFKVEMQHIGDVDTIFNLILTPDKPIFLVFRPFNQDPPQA
Sequence of UniProt Q8IY84 (whole entry, looked up): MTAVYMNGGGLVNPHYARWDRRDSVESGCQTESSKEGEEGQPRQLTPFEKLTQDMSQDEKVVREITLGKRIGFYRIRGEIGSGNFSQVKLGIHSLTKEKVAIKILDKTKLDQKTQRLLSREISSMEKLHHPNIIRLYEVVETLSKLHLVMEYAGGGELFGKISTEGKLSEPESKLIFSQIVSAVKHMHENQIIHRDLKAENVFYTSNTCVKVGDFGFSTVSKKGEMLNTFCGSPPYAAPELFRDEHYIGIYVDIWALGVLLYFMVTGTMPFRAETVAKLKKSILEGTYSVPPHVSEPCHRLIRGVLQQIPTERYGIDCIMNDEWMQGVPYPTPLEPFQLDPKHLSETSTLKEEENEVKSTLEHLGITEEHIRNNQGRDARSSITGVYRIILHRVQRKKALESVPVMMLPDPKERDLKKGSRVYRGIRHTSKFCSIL
Sequence of UniProt Q9BZ95 (whole entry, looked up): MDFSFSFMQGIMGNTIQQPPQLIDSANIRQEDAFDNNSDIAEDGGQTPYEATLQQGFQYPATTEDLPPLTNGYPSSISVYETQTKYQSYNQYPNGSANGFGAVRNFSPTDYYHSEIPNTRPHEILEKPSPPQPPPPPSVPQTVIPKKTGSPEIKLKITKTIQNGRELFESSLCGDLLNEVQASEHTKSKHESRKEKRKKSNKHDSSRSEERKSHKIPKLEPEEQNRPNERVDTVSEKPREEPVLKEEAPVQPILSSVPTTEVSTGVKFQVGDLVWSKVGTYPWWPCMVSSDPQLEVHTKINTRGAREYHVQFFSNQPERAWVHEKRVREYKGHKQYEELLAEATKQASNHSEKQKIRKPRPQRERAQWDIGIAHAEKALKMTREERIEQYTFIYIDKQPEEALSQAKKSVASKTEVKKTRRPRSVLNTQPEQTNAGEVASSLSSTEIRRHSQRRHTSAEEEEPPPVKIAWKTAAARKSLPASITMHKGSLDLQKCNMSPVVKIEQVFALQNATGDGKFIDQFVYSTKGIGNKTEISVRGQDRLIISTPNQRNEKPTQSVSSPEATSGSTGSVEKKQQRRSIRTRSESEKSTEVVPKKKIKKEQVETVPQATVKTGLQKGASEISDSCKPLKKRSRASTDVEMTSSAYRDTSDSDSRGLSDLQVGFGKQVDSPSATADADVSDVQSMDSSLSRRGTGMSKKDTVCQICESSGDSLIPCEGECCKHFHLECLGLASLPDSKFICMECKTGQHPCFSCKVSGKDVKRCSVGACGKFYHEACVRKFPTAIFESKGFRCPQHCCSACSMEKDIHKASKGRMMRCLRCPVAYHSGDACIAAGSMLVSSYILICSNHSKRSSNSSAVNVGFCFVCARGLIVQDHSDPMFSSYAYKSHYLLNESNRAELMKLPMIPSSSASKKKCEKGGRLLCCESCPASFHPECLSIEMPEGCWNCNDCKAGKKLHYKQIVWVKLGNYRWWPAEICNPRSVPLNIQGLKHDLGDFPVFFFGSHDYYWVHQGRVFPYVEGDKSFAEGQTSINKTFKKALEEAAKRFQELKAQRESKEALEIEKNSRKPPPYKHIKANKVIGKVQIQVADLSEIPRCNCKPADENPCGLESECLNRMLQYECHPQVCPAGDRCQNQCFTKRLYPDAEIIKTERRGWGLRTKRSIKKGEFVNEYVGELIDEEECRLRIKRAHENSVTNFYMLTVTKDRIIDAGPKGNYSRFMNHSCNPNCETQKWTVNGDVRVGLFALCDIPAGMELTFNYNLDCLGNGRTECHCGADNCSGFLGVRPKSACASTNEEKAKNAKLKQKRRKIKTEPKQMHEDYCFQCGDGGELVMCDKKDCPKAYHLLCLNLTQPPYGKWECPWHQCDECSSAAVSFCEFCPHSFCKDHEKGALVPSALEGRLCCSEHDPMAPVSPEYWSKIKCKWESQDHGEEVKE

Compound	target or system	test	system	setting	how to read	quantity	value
CC1(C)S[C@@H]2[C@H](NC(=O)[C@H](N)c3ccccc3)C(=O)N2[C@H]1C(=O)O	Pseudomonas aeruginosa		clinical isolate RKI-No_221/16			MIC	> 16 µg/mL
C[N+](C)(C)C[C@H](O)CC(=O)[O-]	Methyl-accepting chemotaxis protein, ligand-binding domain (Pectobacterium atrosepticum, UniProt Q6D515)	isothermal titration calorimetry		concentration not given		binding enthalpy (ΔH)	-4.8 ± 0.7 kcal/mol
CCN(c1cc(-c2ccc(CN3CCOCC3)cc2)cc(C(=O)NCc2c(C)cc(C)[nH]c2=O)c1C)C1CCOCC1	Histone-lysine N-methyltransferase NSD3 (NSD3, Homo sapiens, UniProt Q9BZ95)	enzyme activity, inhibitor		1 µM		inhibition	9 ± 8%
C[C@H](NC[C@H](O)CP(=O)(O)CC1CCCCC1)c1ccc(Cl)c(Cl)c1	Gamma-aminobutyric acid type B receptor subunit 1 (GABBR1, Homo sapiens, UniProt Q9UBS5)			historical reference value		Hill coefficient	1
CC(C)CCC[C@@H](C)[C@H]1CC[C@H]2[C@@H]3CC=C4C[C@@H](O)CC[C@]4(C)[C@H]3CC[C@]12C	Cholesterol side-chain cleavage enzyme, mitochondrial (Bos taurus, UniProt P00189)	substrate				metabolism rate	6.1 mol/min/mol
Cc1ccc2cccc(NC(=O)c3ccc(OC(C)C)cc3)c2n1	SERCA2a			concentration not given		ATPase activity	increased
NCCc1c[nH]c2ccc(O)cc12	5-HT2A receptor Y7.43A			concentration not given	relative to: wild type receptor	functional potency reduction	300 fold
O=C(Nc1nc2ccccc2[nH]1)c1ccccc1	SUMO1/sentrin specific peptidase 7			12.5 µM, PubChem AID 488917		response	100%
Cn1ncnc1[C@H]1c2n[nH]c(=O)c3cc(F)cc(c23)N[C@@H]1c1ccc(F)cc1	HepG2	mitochondrial membrane potential		concentration not given, Tox21		activity outcome	inactive
COc1ccc(C[C@H](N)C(=O)N[C@H]2[C@@H](O)[C@H](n3cnc4c(N(C)C)ncnc43)O[C@@H]2CO)cc1	Aminopeptidase N (ANPEP, Homo sapiens, UniProt P15144)	enzyme activity		10 µM		inhibition	15.7%
COc1cc(Cc2cnc(N)nc2N)cc(OC)c1OC	Cytochrome P450 2C9 (CYP2C9, Homo sapiens, UniProt P11712)	substrate				Km	0.428 to 1.33 mM
C=CC(=O)N1CCC(C(=O)NCC(=O)N2CCN(c3nc(-c4cnc(N)nc4C(F)F)nc(N4CCOCC4)n3)CC2)CC1	Phosphatidylinositol 4,5-bisphosphate 3-kinase catalytic subunit alpha isoform (PIK3CA, Homo sapiens, UniProt P42336, Q546K)	kinase activity		1 µM		remaining activity	0%
CCN(CC)CCNC(=O)c1ccc(NC(C)=O)cc1	HepG2	mitochondrial membrane potential		concentration not given, Tox21		activity outcome	inactive
CC1=CC(=O)CC(C)(C)C1=O	YqjM (Old Yellow Enzyme homolog)	ene-reductase biotransformation, substrate				conversion	86 to 96%
Cc1c(C#N)cccc1[C@@H](C)Nc1nnc(C)c2cnc(N3CCOCC3)cc12	NCI-H1838	ERK phosphorylation, In-Cell Western, refers to: phospho-ERK				IC50	101 ± 14.5 nM
O=S(=O)(O)O	hepatocytes	anion exchange, substrate				Km	7 to 16 mM
Nc1cc(C(F)(F)F)c(-c2nc(N3CCOCC3)nc(N3CCOCC3)n2)cn1	Serine/threonine-protein kinase NIM1 (NIM1K, Homo sapiens, UniProt Q8IY84)	enzyme activity		10 µM	relative to: untreated	remaining activity	92%
Cc1cc(NC(=O)c2cccc(NC(=O)/C=C/CN(C)C)c2)ccc1Nc1nccc(-c2cccnc2)n1	Focal adhesion kinase 1 (PTK2, Homo sapiens, UniProt Q05397)	enzyme activity, inhibitor		1 µM	relative to: vehicle	remaining activity	11%
CNC(C)C1CCC(N)C(OC2C(N)CC(N)C(OC3OCC(C)(O)C(NC)C3O)C2O)O1 (centres unmarked)	Pseudomonas aeruginosa		clinical isolate RKI-No_40/14			MIC	> 8 µg/mL
Nc1cc(C(F)(F)F)c(-c2nc(N3CCOCC3)nc(N3CCOCC3)n2)cn1	Phosphatidylinositol 3-kinase C2 domain-containing subunit gamma (PIK3C2G, Homo sapiens, UniProt O75747)	KinomeScan competition binding		10 µM		remaining binding	7%

Repeated from above:
Compound	target or system	test	system	setting	how to read	quantity	value
CC1=CC(=O)CC(C)(C)C1=O	YqjM (Old Yellow Enzyme homolog)	ene-reductase biotransformation, substrate				conversion	86 to 96%
Cc1c(C#N)cccc1[C@@H](C)Nc1nnc(C)c2cnc(N3CCOCC3)cc12	NCI-H1838	ERK phosphorylation, In-Cell Western, refers to: phospho-ERK				IC50	101 ± 14.5 nM
